Experimental data of several laboratories.
Values joined by “and” are separate records of one study, mostly repeats; a detail may differ. ± marks the error that the study gave.
MAL12: Alpha-glucosidase MAL12 (MAL12, Saccharomyces cerevisiae S288c, UniProt P53341)
Inward rectifier potassium channel 4: Inward rectifier potassium channel 4 (Homo sapiens, UniProt P48050)
Kir1 channel protein: Kir1 channel protein (Aedes aegypti, UniProt L0EQS9)
KCNJ13 M125R: Inward rectifier potassium channel 13 (KCNJ13, Homo sapiens, UniProt O60928, M125R)
KCNK18: Potassium channel subfamily K member 18 (KCNK18, Homo sapiens, UniProt Q7Z418)
Urease: Urease (Canavalia ensiformis, UniProt P07374)
ALPL: Alkaline phosphatase, tissue-nonspecific isozyme (ALPL, Homo sapiens, UniProt P05186)
ALKBH2: DNA oxidative demethylase ALKBH2 (ALKBH2, Homo sapiens, UniProt Q6NS38)

With `NC(=S)N/N=C/c1cc2ccccc2nc1SCc1cn(CC(=O)NCCc2ccccc2)nn1` the IC50 was at most 70.3 µM (MAL12; enzyme activity, inhibitor).
`CC(C)C[C@H](NC(=O)[C@H](CC(N)=O)NC(=O)[C@H](CC(C)C)NC(=O)[C@@H](NC(=O)[C@@H](NC(=O)[C@@H]1CCCN1C(=O)[C@H](CCCNC(=N)N)NC(=O)[C@H](CCCCN)NC(=O)[C@@H]1CCCN1C(=O)[C@H](CCCNC(=N)N)NC(=O)[C@H](CCCNC(=N)N)NC(=O)[C@H](CCCNC(=N)N)NC(=O)[C@H](CCCNC(=N)N)NC(=O)[C@H](CCC(N)=O)NC(=O)[C@H](CCCNC(=N)N)NC(=O)[C@H](CCCNC(=N)N)NC(=O)[C@H](CCCCN)NC(=O)[C@H](CCCCN)NC(=O)[C@H](CCCNC(=N)N)NC(=O)CNC(=O)[C@@H](N)Cc1ccc(O)cc1)[C@@H](C)O)[C@@H](C)O)C(=O)N[C@@H](Cc1ccccc1)C(N)=O` has an IC50 of 0.043 µM (MAPK8 (Homo sapiens, UniProt P45983); enzyme activity, inhibitor).
The IC50 of `C#CCOc1ccc(-c2cc(=O)c3ccccc3o2)cc1` is reported as over 10 µM (Cytochrome P450 2B1 (Cyp2b1, Rattus norvegicus, UniProt P00176); enzyme activity, inhibitor; supersomes; together with: pentoxyresorufin 5 µM).
With `N#Cc1nc2c(nc1C#N)-c1ccc(Cl)cc1C2=O` the IC50 was 5.97 µM (USP7 (Homo sapiens, UniProt Q93009)).
The IC50 of `CCCN(CCC)c1ccc(C=O)cc1` is reported as 0.11 ± 0.02 µM (Aldehyde dehydrogenase 1A1 (Aldh1a1, Mus musculus, UniProt P24549); enzyme activity, inhibitor, spectrophotometry; purified mouse liver enzyme; pH 8.4, together with: all-trans retinal 1-10 µM, 1 mM NAD).
`CC(C)C[C@H](NC(=O)N1CCOCC1)C(=O)N[C@H](/C=C/S(=O)(=O)c1ccccc1)CCc1ccccc1` gave an IC50 of 5.16 µM (CTSC (Bos taurus, UniProt Q3ZCJ8); enzyme activity, inhibitor, fluorescence; pH 5.5, with preincubation).
For `N=c1n(Cc2ccccc2)c2ccccc2n1CC(O)COc1ccc(OCc2ccccc2)cc1` (centres unmarked), the IC50 was 2.33 µM (Inward rectifier potassium channel 4; ion flux, inhibitor, fluorescence).
`CC(C)(COP(=O)(O)OP(=O)(O)OC[C@H]1O[C@@H](n2cnc3c(N)ncnc32)[C@H](O)[C@@H]1OP(=O)(O)O)[C@@H](O)C(=O)NCCC(=O)NCCS` gave an IC50 of 7.3 µM (N-alpha-acetyltransferase 50 (Homo sapiens, UniProt Q9GZZ1); binding, BRET tracer displacement; together with: Cy3-labelled tracer).
`COc1cccc2c1c(O)c(C(=O)N(C)c1ccc(C(F)(F)F)cc1)c(=O)n2C` has an IC50 of 10 µM (Histone deacetylase 4, with NCoR1 (HDAC4, Homo sapiens, UniProt P56524); binding to NCoR1, inhibitor, surface plasmon resonance; together with: NCoR1).
With `Cc1nnc(CNc2cc(N3CCN(S(=O)(=O)c4ccc(F)cc4)CC3)ccc2[N+](=O)[O-])o1` the IC50 was 0.441 µM (Kir1 channel protein; ion flux, inhibitor, fluorescence).
With `[Cl][Yb]([Cl])[Cl]` the IC50 was 5.03 ± 0.17 µM (human MMP-2 catalytic domain; inhibitor; pH 7.5, 37 °C, 45 min preincubation, together with: DQ-gelatin).
`[Cl-].[Cl-].[Zn+2]` gave an IC50 of 282 µM (HVCN1 (Homo sapiens, UniProt Q96D96, E119A/H193A); proton current, inhibitor, whole-cell voltage clamp; human cells; pH 6.5, test pulse 100 mV).
With `Cc1nc2ccccc2n1Cc1ccc(C(=O)NO)cc1` the IC50 was 1.01 µM (HDAC4 (Homo sapiens, UniProt P56524); concentration not given).
With `CC(C)c1ccc(OCC(O)Cn2c(=N)n(Cc3ccccc3)c3ccccc32)cc1` (centres unmarked) the IC50 was 6.03 µM (KCNJ13 M125R; ion flux, inhibitor).
With `CC(C)c1ccc2c(c1)c(SC(C)(C)C)c(CC(C)(C)C(=O)O)n2Cc1ccc(Cl)cc1` the IC50 was 10 µM (KCNK18; ion flux, inhibitor).
`O=C1c2cc3c(cc2-c2c1c1ccc(F)cc1c(=O)n2CCCNCCO)OCO3` has an IC50 of 14.1 µM and 10.2 µM (TDP2 (Homo sapiens, UniProt O95551); enzyme activity, inhibitor).
For `C/C=C1\C(=O)C[C@H]2[C@@H]3CCC4=CC(=O)CC[C@]4(C)[C@H]3CC[C@]12C`, the IC50 was 11.9 µM (KCNK18; ion flux, inhibitor).
`O=C(CCCCCCC(=O)Nc1ccc([C@H]2O[C@@H](CSc3nc(-c4ccccc4)c(-c4ccccc4)o3)C[C@@H](c3ccc(CO)cc3)O2)cc1)NO` gave an IC50 of 26 µM (HDAC (Lucilia cuprina egg nuclear extract); enzyme activity, inhibitor, fluorometric).
With `N=c1n(Cc2ccccc2)c2ccccc2n1CC(O)COc1ccc(Cc2ccccc2)cc1` (centres unmarked) the IC50 was 2.8 µM (Inward rectifier potassium channel 4; ion flux, inhibitor, fluorescence).
`CC12CC3CC(C)(C1)CC([N+](C)(C)C)(C3)C2` has an IC50 of 384 ± 8 µM (Gria2 (Rattus norvegicus, UniProt P19491); ion current, inhibitor, whole-cell patch-clamp; holding potential -60 mV, together with: glutamate 10 mM, cyclothiazide 100 µM).
The IC50 of `CCOc1ccc(NC(=S)N2CCc3ccccc3C2)cc1` is reported as 31.3 µM (Urease; enzyme activity, inhibitor, absorbance).
With `O=C(NO)c1ccc(Cn2c3c(c4cc(Br)ccc42)SC(c2ccccc2)C3)s1` (centres unmarked) the IC50 was 5.17 ± 2.58 µM (Histone deacetylase 8 (Schistosoma mansoni, UniProt A5H660); enzyme activity, inhibitor, Fluor-de-Lys; varied substrate concentration, together with: Fluor-de-Lys substrate 50 µM).
The IC50 of `CCOc1ccc(C)cc1S(=O)(=O)Nc1cccnc1` is reported as 1.93 µM (ALPL; enzyme activity, inhibitor).
`Clc1ccccc1C(c1ccccc1)(c1ccccc1)n1ccnc1` gave an IC50 of < 10 µM and 7.36 µM (7-alpha-hydroxycholest-4-en-3-one 12-alpha-hydroxylase (Homo sapiens, UniProt Q9UNU6); enzyme activity, inhibitor; 2 min, together with: 7α-hydroxycholest-4-en-3-one 0.5 µM (Km)).
`Cc1cccc(OCC(O)Cn2c(=N)n(Cc3ccccc3)c3ccccc32)c1` (centres unmarked) gave an IC50 of 7.53 µM (Inward rectifier potassium channel 4; ion flux, inhibitor, fluorescence).
`Tannic acid` has an IC50 of 0.77 ± 0.05 µM (Genome polyprotein, NS2B-NS3 protease (Dengue virus type 1, UniProt P17763); inhibitor, fluorogenic substrate Bz-Nle-Lys-Arg-Arg-AMC; DENV1).
For `C[C@@H]1O[C@@H](OC[C@H]2O[C@@H](Oc3cc(O)c4c(=O)cc(-c5ccc(O)cc5)oc4c3)[C@H](O)[C@@H](O)[C@@H]2O)[C@H](O)[C@H](O)[C@H]1O`, the IC50 was 670 µM (tyrosinase (Agaricus bisporus); enzyme activity; 30 min, pH 6.8, 37 °C, together with: L-DOPA).
The IC50 of `Cc1cc(OCC(=O)N/N=C/c2ccc(OCc3cn(Cc4ccc(Cl)cc4)nn3)cc2)c2c(C)cc(=O)oc2c1` is reported as 7.5 ± 0.54 µM (Urease; enzyme activity, inhibitor).
With `N=c1n(Cc2ccccc2)c2ccccc2n1CC(O)COc1cc(F)cc(F)c1` (centres unmarked) the IC50 was 4.2 µM (KCNJ13 M125R; ion flux, inhibitor).
The IC50 of `Cn1cc(-c2c[nH]c3ncnc(N4CCOCC4)c23)cc1C#N` is reported as 0.006 µM (LRRK2 (Homo sapiens, UniProt Q5S007); AlphaScreen; wild type, together with: ATP 9.5 µM).
With `Cc1ccc(Cn2cc(COc3ccc(C4C(C#N)=C(N)Oc5c4c(=O)[nH]c4ccccc54)cc3)nn2)cc1` (centres unmarked) the IC50 was 9.72 ± 0.18 µM (MAL12; enzyme activity).
For `CC(=O)N[C@H]1[C@H]([C@H](O)[C@H](O)CO)OC(C(=O)O)=C[C@@H]1N=C(N)N`, IC50 read “no inhibition” (SLC15A1 (Homo sapiens, UniProt P46059); inhibitor; Caco-2; up to 5 mM, 30 min, pH 6.0, 37 °C, together with: [3H]Gly-Sar 10 µmol/L).
`CC(C)=CCC/C(C)=C/COc1c2ccoc2cc2oc(=O)ccc12` has an IC50 of over 300 µM (SLCO2B1 (Homo sapiens, UniProt O94956); transporter uptake, inhibitor, radiometric; MDCK-II; 3 min, pH 6).
`Cc1ccc(-c2cc(CF)nn2-c2ccc(S(N)(=O)=O)cc2)cc1` gave an IC50 of over 4 µM (PTGS1 (Ovis aries, UniProt P05979); enzyme activity, inhibitor).
`C[C@@H]1O[C@@H](Oc2c(-c3ccc(O)c(O)c3)oc3cc(O)cc(O)c3c2=O)[C@H](O)[C@H](O)[C@H]1O` gave an IC50 of 255 ± 3.31 µM (α-glucosidase (Saccharomyces cerevisiae); inhibitor; together with: pNPG).
With `Cc1ccsc1S(=O)(=O)NC[C@H]1O[C@@H](C)[C@@H](O)[C@@H](O)[C@@H]1O` the IC50 was 0.2 to 0.33 µM (fucose-binding lectin LecB (Pseudomonas aeruginosa, UniProt A0A0H2ZE85)).
With `O=c1cc(-c2cccc3ccccc23)[nH][nH]1` the IC50 was 1.15 ± 0.058 µM (ALPL; enzyme activity, inhibitor, luminescence; together with: 1 µM CDP-star, 100 mM DEA).
`COc1ccc(-c2nc(N3CCOCC3)c3sc(CN(C)c4ncc(C(=O)NO)cn4)cc3n2)cn1` has an IC50 of 0.11 µM (HDAC (Lucilia cuprina egg nuclear extract); enzyme activity, inhibitor, fluorometric).
For `O=[N+]([O-])c1cccc(NC(=S)N2CCc3ccccc3C2)c1`, the IC50 was 33.2 µM (Urease; enzyme activity, inhibitor, absorbance).
The IC50 of `Nc1ncnc2c1ncn2[C@@H]1O[C@H](CSCC[C@H](N)C(=O)O)[C@@H](O)[C@H]1O` is reported as 2 ± 0.2 µM (Histone-lysine N-methyltransferase 2A, with RbBP5 and WDR5 (KMT2A, Homo sapiens, UniProt Q03164); FL-NAH displacement, fluorescence polarization; 30 min, trimeric complex, together with: 50 nM FL-NAH).
For `COc1ccc([C@H](CC(=O)O)N2CCN(CCCc3ccc4c(n3)NCCC4)C2=O)cn1`, the IC50 was 0.0007 ± 0.0005 µM (Integrin alpha-V/beta-6 (Homo sapiens, UniProt P06756+P18564); LAP binding, inhibitor, ELISA).
`O=C(O)c1cc(O)c2c(c1)C(=O)c1cccc(O)c1C2=O` has an IC50 of 52.7 µM (ALKBH2; 3-methylcytosine repair, inhibitor, HPLC; 1 h, 37 °C, together with: ssDNA 16mer 5 µM).
`O=[N+]([O-])c1ccc(N2CCN(S(=O)(=O)c3ccc(F)cc3)CC2)cc1NCc1cnco1` gave an IC50 of 0.108 µM (Kir1 channel protein; ion flux, inhibitor, fluorescence).
For `CCCCc1oc2ccccc2c1C(=O)c1cc(Br)c(O)c(Br)c1`, the IC50 was 1.9 µM (SLC22A12 (Homo sapiens, UniProt Q96S37); human cells).
`COc1ccc(OCC(O)Cn2c(=N)n(Cc3ccccc3)c3ccccc32)cc1` (centres unmarked) has an IC50 of 6.7 µM (KCNJ13 M125R; ion flux, inhibitor).
The IC50 of `moenomycin` is reported as 0.16 ± 0.08 µM (Transglycosylase (Staphylococcus aureus, UniProt Q9R744); transglycosylase activity, inhibitor; RN4220; 1 h, pH 7.0, 30 °C, 10% DMSO, together with: [14C]-lipid II D-Ala-D-Ala 4 µM).
`N=c1n(Cc2ccc(Cl)cc2)c2ccccc2n1CC(O)COc1ccccc1` (centres unmarked) gave an IC50 of 7.2 µM (Inward rectifier potassium channel 4; ion flux, inhibitor, fluorescence).
`Cc1ccc2nc(C3CC3)n(-c3ccc4[nH]c(=O)sc4c3)c2n1` gave an IC50 of 0.00141 µM (GRIA1/CACNG8 (Homo sapiens, UniProt P42261+Q8WXS5); calcium influx, antagonist, FLIPR; HEK293 expressing GluA1o; together with: glutamate 100 µM).
With `COc1ccc(-c2ccc3ncc4c(c3c2)n(-c2ccc(N3CCNCC3)c(C(F)(F)F)c2)c(=O)n4C)cn1` the IC50 was ~0.0038 µM and 0.0038 µM (ATM (Homo sapiens, UniProt Q13315); kinase activity reporter, inhibitor, SPARK reporter imaging; HEK293; 1 h, together with: etoposide 3 µM).
`Cn1nnc2ccc(C(c3ccc(OS(N)(=O)=O)cc3)n3cncn3)cc21` (racemic) has an IC50 of over 10 µM (Steryl-sulfatase (STS, Homo sapiens, UniProt P08842); enzyme activity, inhibitor).
The IC50 of `COC(=O)C1=C(C)NC(C)=C(C(=O)OCCN(C)Cc2ccccc2)C1c1cccc([N+](=O)[O-])c1` (centres unmarked) is reported as 0.6 ± 0.4 µM (ABCC1 (Homo sapiens, UniProt P33527); efflux, inhibitor, flow cytometry; SupT1 cells overexpressing ABCC1; together with: 500 nM CellTracker Orange CMTMR).
With `tannic acid` the IC50 was 1.8 µM (ALKBH2; enzyme activity, inhibitor, HPLC; 1 h, 37 °C, 2-oxoglutarate and Fe(II) present, together with: 1-methyladenine in single-stranded DNA).
`COC(=O)C1=C(C)NC(C)=C([N+](=O)[O-])[C@H]1c1ccccc1C(F)(F)F` has an IC50 of 10.8 ± 1.9 µM (CACNA1H (Homo sapiens, UniProt O95180); calcium current, blocker, automated patch clamp; holding potential -90 mV; together with: 60 s prepulse, -75 mV).
